# Measured values collected from several papers.
# ± marks the error that the study gave.
Structure (SMILES),test system,conditions,tissue uptake
[123I]c1ccc2nc(-c3ccc(-n4ccnn4)nc3)cn2c1,"male Wistar rat, large intestine","intravenous, 4 MBq, 14 h",0.609 ± 0.274 %ID/g
CC(C(=O)O)n1nc(Cn2cc3cc(OCC[18F])c(Cl)cc3n2)c2ccccc2c1=O (racemic),"Sprague-Dawley rat male, pancreas",120 min,0.04 ± 0.03 %ID/g
CC(C)Cc1ccc(C(C)C(=O)N[C@@H](CCCCNC(=O)CCOCCOCCOCCOCCOCCOCCNC(=O)CN2CCN(CC(=O)[O-])CCN(CC(=O)[O-])CCN(CC(=O)[O-])CC2)C(=O)Nc2cccc3c(C(=O)NCC(=O)N4CC(F)(F)C[C@H]4C#N)ccnc23)cc1.[177Lu+3] (stereo partly shown),"mouse, U-87 MG tumour xenograft, spleen",1 h,2.57 ± 0.56 %ID/g
COc1cccc(OC)c1-c1cc(C(=O)NC2(C(=O)O)C3CC4CC(C3)CC2C4)nn1-c1ccc(C(=O)N(C)CCOCCOCCN(C)C(=O)[C@H](CCCCNC(=O)[C@H](CC(C)C)NC(=O)C2OC2C(=O)O)NC(=O)CN2CCN(CC(=O)[O-])CCN(CC(=O)[O-])CCN(CC(=O)[O-])CC2)cc1C(C)C.[177Lu+3] (mixture of isomers),"mouse, HT-29 xenograft, muscle",4 h post injection,0.42 %ID/g
N#C[C@@H]1CC(F)(F)CN1C(=O)CNC(=O)c1ccnc2c(NC(=O)[C@@H](N)CCCCNC(=O)CCOCCOCCOCCOCCOCCOCCNC(=O)CN3CCN(CC(=O)[O-])CCN(CC(=O)[O-])CCN(CC(=O)[O-])CC3)cccc12.[177Lu+3],"mouse, U-87 MG tumour xenograft, brain",48 h,0.02 ± 0.02 %ID/g
COc1ccc(Nc2nc(Nc3ccc(OCCOCCOCC[18F])cc3)ncc2Br)cc1,"ICR mice, S180 tumour-bearing, heart","intravenous, 370 kBq, 30 min",1.26 ± 0.09 %ID/g
CCCC[C@H](NC(=O)COCCOCCNC(=O)CN1CCN(CC(=O)O)CCN(CC(=O)O)CC1)C(=O)N[C@H]1CC(=O)NCCCC[C@@H](C(N)=O)NC(=O)[C@H](Cc2c[nH]c3ccccc23)NC(=O)[C@H](CCCNC(=N)N)NC(=O)[C@@H](Cc2ccccc2)NC(=O)[C@H](Cc2c[nH]cn2)NC1=O [fluorine-18 labelled],"C57 mice B16-F10 melanoma, bone","intravenous, 0.37 MBq, 0.5 h",4.15 ± 0.67 %ID/g
[11CH3]N1CCC(NC(=O)c2cc(-c3c(O)cc(O)cc3Oc3ccc([N+](=O)[O-])cc3)on2)CC1,"Wistar rat, female, healthy, lungs","intravenous, 60 min",0.6 ± 0.1 %ID
COc1cccc(OC)c1-c1cc(C(=O)NC2(C(=O)O)C3CC4CC(C3)CC2C4)nn1-c1ccc(C(=O)N(C)CCOCCN(C)C(=O)[C@H](CCCCNC(=O)[C@H](CC(C)C)NC(=O)C2OC2C(=O)O)NC(=O)CN2CCN(CC(=O)[O-])CCN(CC(=O)[O-])CCN(CC(=O)[O-])CC2)cc1C(C)C.[177Lu+3] (mixture of isomers),"mouse, HT-29 xenograft, HT-29 tumour",24 h post injection,3.03 %ID/g
N#C[C@@H]1CC(F)(F)CN1C(=O)CNC(=O)c1ccnc2c(NC(=O)CCOCCOCCOCCOCCOCCOCCNC(=O)[C@H](CCCCNC(=O)CN3CCN(CC(=O)[O-])CCN(CC(=O)[O-])CCN(CC(=O)[O-])CC3)NC(=O)CCCc3ccc(I)cc3)cccc12.[177Lu+3],"mouse, U-87 MG tumour xenograft, spleen",24 h,0.37 ± 0.24 %ID/g
CCCC[C@H](NC(=O)CNC(=O)CNC(=O)[C@H](CCCCNC(=O)[C@H](CC(=O)O)NC(=O)C(C)c1ccc(CC(C)C)cc1)NC(=O)CN1CCN(CC(=O)O)CCN(CC(=O)O)CCN(CC(=O)O)CC1)C(=O)N[C@H]1CC(=O)NCCCC[C@@H](C(N)=O)NC(=O)[C@H](Cc2c[nH]c3ccccc23)NC(=O)[C@H](CCCNC(=N)N)NC(=O)[C@@H](Cc2ccccc2)NC(=O)[C@H](Cc2c[nH]cn2)NC1=O (stereo partly shown) [lutetium-177 labelled],"C57 mouse, liver","intravenous, 2 h, added: 10 µg NDP-MSH co-injection",2.13 ± 0.73 %ID/g
O=C(NCC1OC2CCC=CCCC2O1)c1ccc(COCCOCCOCC[18F])cc1 (stereo not shown),"healthy female BALB/c nude mice, lungs","intravenous, 7.4 MBq per mouse, 60 min",2.1 ± 0.5 %ID/g
COc1cccc(OC)c1-c1cc(C(=O)NC2(C(=O)O)C3CC4CC(C3)CC2C4)nn1-c1ccc(C(=O)N(C)CCCN(C)C(=O)[C@H](CCCCNC(=O)[C@H](CC(C)C)NC(=O)C2OC2C(=O)O)NC(=O)CN2CCN(CC(=O)[O-])CCN(CC(=O)[O-])CCN(CC(=O)[O-])CC2)cc1C(C)C.[177Lu+3] (mixture of isomers),"mouse, HT-29 xenograft, kidney",72 h post injection,3.1 %ID/g
O=C(CN1CCN(CC(=O)NCc2ncccc2O)CCN(CC(=O)NCc2ncccc2O)CCN(CC(=O)NCc2ncccc2O)CC1)NCc1ncccc1O.[177Lu+3],"Sprague-Dawley rat, heart","intravenous (tail vein), dose not given, 2 h",0.048 ± 0.01 % injected dose/g
CCCC[C@H](NC(=O)CCCCCCCNC(=O)CN1CCN(CC(=O)O)CCN(CC(=O)O)CC1)C(=O)N[C@H]1CC(=O)NCCCC[C@@H](C(N)=O)NC(=O)[C@H](Cc2c[nH]c3ccccc23)NC(=O)[C@H](CCCNC(=N)N)NC(=O)[C@@H](Cc2ccccc2)NC(=O)[C@H](Cc2c[nH]cn2)NC1=O [fluorine-18 labelled],"C57 mice, B16/F10 melanoma, kidneys","intravenous, 1 h, added: NDP-MSH 10 µg",6.67 ± 1.16 %ID/g
CCOC(=O)CNC(=O)CN1CCN(CC(=O)NCC(=O)OCC)CCN(CC(=O)NCC(=O)OCC)CCN(CC(=O)NCC(=O)OCC)CC1.[177Lu+3],"Sprague-Dawley rat, bone","intravenous (tail vein), dose not given, 2 h",0.149 ± 0.063 % injected dose/g
CN(CCCO)Cc1ccc(-c2noc(-c3ccc(OCC[18F])c(C(F)(F)F)c3)n2)cc1F,"Sprague-Dawley rats, male, liver",5 min post-injection,4.57 ± 0.16 %ID/g
COc1cccc(OC)c1-c1cc(C(=O)NC2(C(=O)O)C3CC4CC(C3)CC2C4)nn1-c1ccc(C(=O)NCCNC(=O)[C@H](CCCCNC(=O)[C@H](CC(C)C)NC(=O)C2OC2C(=O)O)NC(=O)CN2CCN(CC(=O)[O-])CCN(CC(=O)[O-])CCN(CC(=O)[O-])CC2)cc1C(C)C.[177Lu+3] (mixture of isomers),"mouse, HT-29 xenograft, spleen",24 h post injection,0.71 %ID/g
O=C(O)CCCOc1ccc([18F])cc1-c1cc(-c2ccccc2C(F)(F)F)n(-c2ccccc2)n1,"mouse, small intestine","intravenous, dose not given, 15 min",3.11 ± 0.65 %ID/g

# Some of these lines once more:
Structure (SMILES),test system,conditions,tissue uptake
[123I]c1ccc2nc(-c3ccc(-n4ccnn4)nc3)cn2c1,"male Wistar rat, large intestine","intravenous, 4 MBq, 14 h",0.609 ± 0.274 %ID/g
